Results pooled from the literature.
A part holds a random share of what one study measured. Positions count from the first letter of the parent shown.
UniProt P23975, sequence (whole entry, looked up): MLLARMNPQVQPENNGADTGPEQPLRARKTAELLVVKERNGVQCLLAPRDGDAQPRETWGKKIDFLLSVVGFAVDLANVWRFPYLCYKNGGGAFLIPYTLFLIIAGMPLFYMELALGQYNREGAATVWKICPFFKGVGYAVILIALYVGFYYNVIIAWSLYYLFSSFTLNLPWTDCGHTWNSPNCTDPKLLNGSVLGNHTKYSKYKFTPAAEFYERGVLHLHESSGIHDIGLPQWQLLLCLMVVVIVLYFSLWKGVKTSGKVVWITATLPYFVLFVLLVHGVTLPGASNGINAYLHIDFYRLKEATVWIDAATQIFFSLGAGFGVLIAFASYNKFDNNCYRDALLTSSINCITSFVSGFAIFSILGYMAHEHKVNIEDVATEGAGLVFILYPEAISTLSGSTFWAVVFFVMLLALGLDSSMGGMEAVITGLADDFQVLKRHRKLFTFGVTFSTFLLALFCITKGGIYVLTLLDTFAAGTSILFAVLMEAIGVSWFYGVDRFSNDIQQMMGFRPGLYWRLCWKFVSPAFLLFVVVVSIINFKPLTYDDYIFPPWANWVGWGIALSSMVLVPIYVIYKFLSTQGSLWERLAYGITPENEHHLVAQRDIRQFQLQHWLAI

Study 1 — target: CCNB1, cyclin fold, Cln2 fusion (human); technique: yeast growth competition, sequencing; medium: yeast; setting: weak parent motif; baseline: not given; direction: higher = stronger binding; parent: viral docking peptide; CKVKRKLFGSENI
`R5A L7A`: “normalised enrichment score” 0.203.
`F8A` — result for “normalised enrichment score”: 0.309.
`N12A`: “normalised enrichment score” 1.06.
For `C1A`, “normalised enrichment score” read 0.461.
`K2A`: “normalised enrichment score” 1.67.
Under “normalised enrichment score”, `G9A` is recorded as 1.31.
`F8L` — result for “normalised enrichment score”: 0.236.
`R5A` — result for “normalised enrichment score”: 1.17.
For `E11A`, “normalised enrichment score” read 0.646.
Under “normalised enrichment score”, `R5K` is recorded as -0.00453.

Study 2 — technique: DNA-protein interaction ELISA; molecule type: double-stranded DNA, one strand shown; medium: in vitro, bacterial lysate; tested at: not given; setting: whole dsDNA probe, crude lysate protein; baseline: highest signal in screen; direction: higher = stronger binding
Target: Probable WRKY transcription factor 33, N-terminal DNA-binding domain (WRKY33, Arabidopsis thaliana, UniProt Q8S8P5, residues 169-264)
Target sequence (chain): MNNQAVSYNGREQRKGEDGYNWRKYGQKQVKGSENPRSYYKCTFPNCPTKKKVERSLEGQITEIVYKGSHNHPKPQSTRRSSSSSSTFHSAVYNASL
The relative absorbance of `AAAAAATCCTGTTTGCGTTTGATTTTAAAA` is reported as 28.6 % of maximum.
`AAAAAATTAGGACCATCCCCACTAGGAAAA` gave a relative absorbance of 25 % of maximum.
The relative absorbance of `AAAAAATATCCTATTCTAATTTATATAAAA` is reported as 17 % of maximum.
For `AAAAAAATCTCACTCCTGGTCCCCATAAAA`, the relative absorbance was 16.4 % of maximum.
`AAAAAAAACTGTCGCCCCCGGCTGGCAAAA` has a relative absorbance of 21.8 % of maximum.
The relative absorbance of `AAAAAACGTATTGATGTCTATTTCAAAAAA` is reported as 30.8 % of maximum.
For `AAAAAATTCGTTTTTCGTCTTTCATTAAAA`, the relative absorbance was 28.4 % of maximum.
For `AAAAAACCAGCCTCAGTCCTGAACAAAAAA`, the relative absorbance was 33.7 % of maximum.

Study 3 — technique: protein-binding microarray; molecule type: double-stranded DNA, one strand shown; medium: in vitro; tested at: 250 nM; setting: 60-bp whole probe; together with: salmon DNA 0.4 mg/ml; baseline: random background probes; direction: higher = stronger binding; all sequences stand within: GCCTAGCAC … GTCTTGATTCGCTTGACGCTGCTG
Target: Interferon regulatory factor 7, full length, phosphomimetic (IRF7, Homo sapiens, UniProt Q92985, residues 1-503, S101K/S471D/S472D/S475D/S476D/S477D/S483D/S484D/S487D)
Target sequence (chain): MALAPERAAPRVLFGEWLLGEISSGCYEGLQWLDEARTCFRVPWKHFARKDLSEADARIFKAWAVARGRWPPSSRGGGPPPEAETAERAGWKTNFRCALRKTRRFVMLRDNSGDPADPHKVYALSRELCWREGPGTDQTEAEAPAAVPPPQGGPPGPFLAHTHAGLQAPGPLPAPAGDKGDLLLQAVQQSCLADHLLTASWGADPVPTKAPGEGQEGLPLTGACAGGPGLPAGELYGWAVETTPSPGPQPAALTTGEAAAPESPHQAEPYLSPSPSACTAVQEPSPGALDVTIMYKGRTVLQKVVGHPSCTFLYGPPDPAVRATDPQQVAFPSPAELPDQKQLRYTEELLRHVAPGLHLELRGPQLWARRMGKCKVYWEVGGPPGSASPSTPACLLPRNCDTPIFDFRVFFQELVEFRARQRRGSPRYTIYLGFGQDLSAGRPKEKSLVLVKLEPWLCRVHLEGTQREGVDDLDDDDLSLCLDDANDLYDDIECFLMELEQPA
With `AGAGTAAATTAAGTTAGAACGTGCTAG` the log fluorescence was 0.111 z-score.
With `TCATGAATGCCCTTCCATACTGTGCTA` the log fluorescence was -0.343 z-score.
With `GACGGTTCCCTTTTCCTAACGTGCTAG` the log fluorescence was 3.5 z-score.
The log fluorescence of `GACGGCTTCCTTCTCCTGACGTGCTAG` is reported as -0.531 z-score.
For `TTAGGTTTCCTTTCCCTCTAGTGCTAG`, the log fluorescence was 4.58 z-score.
With `TCAAACATCTACAATGGCACTGTGCTA` the log fluorescence was -0.303 z-score.
`TTAGGTATCGGTTTCCGTTAGTGCTAG` gave a log fluorescence of 7.52 z-score.
With `TCAGTCACCCATCTCAGACTGTGCTAG` the log fluorescence was -0.253 z-score.

Single results of other studies — read-out: ligand displacement; tested at: 10 µM
With `N#CN1CC[C@H](C(=O)Nc2nc3c(s2)CN(C(=O)CN=[N+]=[N-])CC3)C1` the inhibition was 7.61% (HTR1A (Homo sapiens, UniProt P08908)).
`COc1cc(N[C@@H]2CCCC[C@]2(O)C(F)(F)F)ccc1F` gave an inhibition of -20.4% (SLC6A2 (Homo sapiens, UniProt P23975)).
